Experimental data gathered from unrelated publications.
Values joined by “and” are separate records of one study, mostly repeats; a detail may differ. Numbers after ± are the reported error. ≈ marks a conversion by molar mass, not a printed value.

O=c1n(CCNCCOS(=O)(=O)c2ccccc2)c(=O)n(S(=O)(=O)c2ccccc2)c(=O)n1S(=O)(=O)c1ccccc1
MLC (Bacillus subtilis; broth microdilution): 4 ± 1 µg/mL

CCc1nn(C)c2nc(-c3ccc(C(=O)O)cc3)nc(NCc3ccccc3)c12
parasite number (Cryptosporidium parvum; HCT-8; 12 x EC90, 48 h; baseline: DMSO control): 29.1% and 33.3% and 30.2% and 34.8%

[O-][N+]1=C(c2ccccc2)C2=NCCCN2c2ncccc21
MIC50 (Fusobacterium nucleatum; microbial growth): 0.125 µg/mL (≈ 0.449 µM)

C#CCN1C(=O)C(CC#C)(C(=O)OCC)Oc2ccccc21 (stereo not drawn)
stem length inhibition (Arabidopsis thaliana; Col-0, seed germination, dark; 200 µg/mL, 7 days, 22 °C): 100%

Cc1cc(-c2ccc3ncnc(Nc4ccc(OCc5cccc(F)c5)c(Cl)c4)c3c2)cnc1N1CCOCC1
EC50 (Plasmodium falciparum; parasite growth, SYBR Green fluorescence; C235 (TM91C235), drug-resistant): 360 nM

CC(C)C[C@H](NC(=O)[C@H](CC(C)C)NC(=O)[C@H](CCCCN)NC(=O)[C@H](Cc1ccccc1)NC(=O)[C@@H](NC(=O)[C@H](CCCNC(=N)N)NC(=O)[C@@H](N)CCCCN)C(C)C)C(=O)N[C@@H](CCCCN)C(=O)N[C@@H](CCCNC(=N)N)C(=O)N[C@@H](Cc1ccc(O)cc1)C(=O)N[C@@H](Cc1c[nH]c2ccccc12)C(=O)N[C@@H](CCCNC(=N)N)C(=O)N[C@@H](CCC(N)=O)C(=O)N[C@@H](CC(C)C)C(=O)N[C@@H](CCCCN)C(=O)N[C@@H](CCCCN)C(=O)N1CCC[C@H]1C(=O)N[C@H](C(=O)N[C@@H](CCCNC(=N)N)C(=O)NCCOCCOCC(=O)O)C(C)C
exopolysaccharide reduction (Pseudomonas aeruginosa and Staphylococcus aureus; confocal microscopy; mixed biofilm; 10 µM, 6 h, biofilm, pre-formed, 24 h): 65.2%

Cc1cc(C(=O)Nc2nc3cccc(C)c3n2[C@H]2CCCCN(C(=O)/C=C/CN(C)C)C2)ccn1
cells in S phase (Trypanosoma brucei; propidium iodide flow cytometry; bloodstream form; concentration not given, 3 h): 17.5%

CC(C)[C@H]1NC(=O)[C@H](Cc2ccccc2)NC(=O)[C@@H](C(C)C)NC(=O)[C@@H](C)NC(=O)[C@H](CO)NC(=O)[C@@H](Cc2c(-c3ccc(-c4ccc5ccccc5c4)cc3)[nH]c3ccccc23)NC(=O)[C@@H](CO)NC1=O
MIC90 (Candida albicans; broth dilution): > 50 µM

CC(NC(=O)c1cccc(C(c2ccccc2)N2C(=N)NC(C)(C(C)C)CC2=O)c1)c1ccccc1 (stereo not drawn)
EC50 (Plasmodium falciparum; parasite growth; Dd2-NITD609): 7.9 nM

CCOC(=O)C1(Cc2ccccc2C#N)Oc2cc(F)ccc2N(Cc2ccccc2C#N)C1=O (stereo not drawn)
inhibition (Arabidopsis thaliana; root length, petri dish germination; Col-0, 1/2 MS medium; 200 µg/mL, 7 days, 22 °C, dark): 55.3%

CCCCCCCC(=O)NCCCC[C@H](NC(=O)CCCCCCC)C(=O)N[C@@H](CCCCNC(=O)CCCCCCC)C(=O)NCC(=O)NCC(=O)NCC(=O)N[C@@H](CS)C(=O)N[C@@H](CCCNC(=N)N)C(=O)N[C@@H](CCCCN)C(=O)N1CCC[C@H]1C(=O)N[C@@H](CS)C(=O)N[C@@H](CCCNC(=N)N)C(=O)N[C@@H](CCCCN)C(=O)N1CCC[C@H]1C(N)=O
MIC (Candida albicans; broth microdilution; fluconazole-resistant 56214, RPMI-1640; 48 h, 30 °C): 8 µM

C=CCN1C(=O)C(CC=C)(C(=O)OCC)Oc2cc(F)ccc21 (stereo not drawn)
seed germination inhibition (Arabidopsis thaliana; Col-0; 50 µg/mL): inhibited

C[C@H]1[C@@H](OCc2cn(-c3cc4ccc(O)cc4oc3=O)nn2)O[C@@H]2O[C@@]3(C)CC[C@H]4[C@H](C)CC[C@@H]1[C@@]24OO3
median survival (Plasmodium berghei; NK65/GFP, infected mice; oral gavage, 65 µmol/kg once daily, 96 h dosing period): 32 days

O=C(c1cncc(-c2ccc3ncnc(Nc4ccc(OCc5cccc(F)c5)c(Cl)c4)c3c2)c1)N1CCOCC1
EC50 (Plasmodium falciparum; parasite growth, SYBR Green; D6; blood stage): 370 nM

CCOC(=O)C1(Cc2c(F)cccc2F)Oc2cc(F)ccc2N(Cc2c(F)cccc2F)C1=O (stereo not drawn)
inhibition (Arabidopsis thaliana; root length, petri dish germination; Col-0, 1/2 MS medium; 50 µg/mL, 7 days, 22 °C, dark): 8.94%

CCN1CCN(Cc2ccc(CNc3nc(N(C)C)nc(N(C)C)c3/N=N/c3ccc(Cl)cc3)cc2)CC1
mortality (Plutella xylostella; leaf dipping; 200 mg/L, 96 h): 86.7 ± 5.8%

Fc1cccc(COc2ccc(Nc3ncnc4ccc(-c5ccc(N6CCCCC6)cc5)cc34)cc2Cl)c1
EC50 (Plasmodium falciparum; parasite growth, SYBR Green fluorescence; C235 (TM91C235), drug-resistant): 1000 nM

CCOC(=O)C1(Cc2ccc([N+](=O)[O-])cc2)Oc2cc(F)ccc2N(Cc2ccc([N+](=O)[O-])cc2)C1=O (stereo not drawn)
inhibition (Arabidopsis thaliana; stem length, petri dish germination; Col-0, 1/2 MS medium; 200 µg/mL, 7 days, 22 °C, dark): 60.6%

CN(C(=O)c1ccn2ncc(-c3ccc(C(N)=O)cc3)c2c1)c1ccc(C#N)cn1
faecal Nluc luminescence (Cryptosporidium parvum; UGA1 Nluc, IFN-gamma knockout C57BL/6 mice, faeces; oral, 10 mg/kg daily, 264 h post infection, treatment days 11-17; higher means more parasites): 2530 a.u. and 77500 a.u. and 126000 a.u. and 94800 a.u. and 27400 a.u.

COc1ccc(C2=[N+]([O-])c3ccccc3N3CC(C)(C)CN=C23)cc1
MIC90 (Fusobacterium nucleatum): 0.25 µg/mL

CCCCCCCCCC(=O)NCCCC[C@H](NC(=O)CCCCCCCCC)C(=O)N[C@@H](CCCCNC(=O)CCCCCCCCC)C(=O)NCC(=O)NCC(=O)NCC(=O)N[C@@H](CS)C(=O)N[C@@H](CCCNC(=N)N)C(=O)N[C@@H](CCCCN)C(=O)N1CCC[C@H]1C(=O)N[C@@H](CS)C(=O)N[C@@H](CCCNC(=N)N)C(=O)N[C@@H](CCCCN)C(=O)N1CCC[C@H]1C(N)=O
MIC (Candida albicans; broth microdilution; SP 3931, RPMI-1640; 48 h, 30 °C): 64 µM

CCOC(=O)C1(Cc2ccccc2)Oc2cc(OC)ccc2N(Cc2ccccc2)C1=O (stereo not drawn)
inhibition (Arabidopsis thaliana; stem length, petri dish germination; Col-0, 1/2 MS medium; 200 µg/mL, 7 days, 22 °C, dark): 63.9%

C[C@H](NC(=O)[C@@H](O)c1cc(F)cc(F)c1)C(=O)N[C@@H]1C(=O)N(C)c2ccccc2-c2ccccc21
inhibition (dengue virus 2; viral infection, luciferase reporter virus; 0.3 nM, 48 h): -10.5%

CC(C)CCCCCCCCC/C=C/C(=O)N[C@@H](CC(=O)O)C(=O)N[C@H]1CNC(=O)[C@@H]2CCCN2C(=O)[C@H](C(C)C)NC(=O)[C@@H](CN)NC(=O)CNC(=O)[C@H](CC(=O)O)NC(=O)CNC(=O)[C@H](CC(=O)O)NC(=O)[C@H](CC(=O)O)NC(=O)[C@H]2CCCCN2C1=O
MIC (Staphylococcus aureus; broth microdilution; VISA LIM strain 2, Mueller-Hinton broth, Mg2+ 10 mg/L; 16 h, added: Ca2+ 2.5 mM): 4 µg/mL

CC[C@H](C)CCCCC(=O)N[C@@H](CCN)C(=O)N[C@H](C(=O)N[C@@H](CCN)C(=O)N[C@H]1CCNC(=O)[C@H]([C@@H](C)O)NC(=O)[C@H](CCN)NC(=O)[C@H](CCN)NC(=O)[C@H](CC(C)C)NC(=O)[C@@H](CC(C)C)NC(=O)[C@H](CCN)NC1=O)[C@@H](C)O
MIC fold change (Escherichia coli; daily serial passaging; ATCC 8739; highest sub-MIC, 3 days; baseline: initial MIC): 1.26

Cc1ccc(NCCN(C)C)c2c(=O)c3cc(O)ccc3sc12
IC50 (HIV-1 subtype C; viral replication; 96 h): 600 nM

CCOC(=O)C1(Cc2ccccc2)Oc2cc(C)ccc2N(Cc2ccccc2)C1=O (stereo not drawn)
inhibition (Arabidopsis thaliana; stem length, petri dish germination; Col-0, 1/2 MS medium; 50 µg/mL, 7 days, 22 °C, dark): 41.1%

Fc1cccc(COc2ccc(Nc3ncnc4ccc(-c5ccc(CN6CCCCC6)cc5)cc34)cc2Cl)c1
EC50 (Plasmodium falciparum; parasite growth, SYBR Green fluorescence; C235 (TM91C235), drug-resistant): 91 nM

CC(O)CN(CC(C)O)CC(C)O.O=C(O)C(Cl)Cl (stereo not drawn)
herbicidal inhibition (Xanthium sibiricum; 15 mg/mL, 21 days, post-emergence, greenhouse): -56%

CC(=O)c1c(O)c(C)c(O)c2c1OC1=CC(=O)C(=C(C)NCCCCOC3OC4OC5(C)CCC6C(C)CCC(C3C)C46OO5)C(=O)C12C (mixture of isomers)
parasitaemia inhibition (Plasmodium berghei; ANKA GFP, NMRI mouse; oral, 4 x 100 mg/kg, day 4 post infection): 99.8%

CS(=O)(=O)c1ccc(-c2ccc3ncnc(Nc4ccc(OCc5cccc(F)c5)c(Cl)c4)c3c2)cc1
EC50 (Plasmodium falciparum; parasite growth, SYBR Green fluorescence; W2, drug-resistant): 360 nM

CC(=O)c1c(O)c(C)c(O)c2c1OC1=CC(=O)C(=C(C)NCCCC(=O)OC3OC4OC5(C)CCC6C(C)CCC(C3C)C46OO5)C(=O)C12C (stereo not drawn)
parasitaemia inhibition (Plasmodium berghei; ANKA GFP, NMRI mouse; oral, 4 x 30 mg/kg, day 4 post infection): 99.6%

CN1CCN(S(=O)(=O)c2ccc(-c3ccc4ncnc(Nc5ccc(OCc6ccccc6)cc5)c4c3)cc2)CC1
EC50 (Plasmodium falciparum; parasite growth, SYBR Green; D6; blood stage): 41 nM

FC(F)(F)c1cccc(CNc2nc(NC3CCN(Cc4ccccc4)CC3)c3nc[nH]c3n2)c1
mRNA fold change (Cryptococcus neoformans; RNA-seq, measured: TEP1 (CNAG_04833); 48 µg/mL, 3 h; baseline: untreated): 1.38

CC[C@H](C)[C@H](NC(=O)[C@H](CCCCN)NC(=O)[C@H](CCCNC(=N)N)NC(=O)CNC(=O)[C@@H](NC(=O)CN)C(C)C)C(=O)NCC(=O)N[C@@H](Cc1ccccc1)C(=O)N[C@@H](CCCCN)C(=O)N[C@@H](CCCCN)C(=O)N[C@H](C(=O)N[C@@H](CC(C)C)C(=O)N[C@@H](Cc1ccccc1)C(=O)N[C@@H](Cc1ccccc1)C(=O)N[C@@H](Cc1ccccc1)C(=O)N[C@@H](CCCCN)C(=O)N[C@@H](CCCCN)C(=O)NCC(=O)N[C@@H](Cc1ccc(O)cc1)C(=O)N[C@@H](CCC(=O)O)C(=O)N[C@@H](CCCCN)C(=O)N[C@@H](C)C(=O)N[C@@H](CC(N)=O)C(=O)NCC(=O)NCC(=O)N[C@@H](Cc1ccccc1)C(=O)N[C@H](C(=O)N[C@@H](CCCCN)C(=O)N[C@@H](CCCCN)C(=O)N[C@@H](CCCCN)C(=O)NCC(=O)O)C(C)C)C(C)C
MBC (Bacillus subtilis; broth microdilution, agar subculture; ATCC 11774, CaMHB): 64 µM (≈ 222 µg/mL)

O=S(=O)(c1ccc(-c2ccc3ncnc(Nc4ccc(OCc5ccccc5F)c(Cl)c4)c3c2)cc1)N1CCOCC1
EC50 (Plasmodium falciparum; parasite growth, SYBR Green; D6; blood stage): 130 nM

CCOC(=O)C1(Cc2cc(F)c(F)c(F)c2)Oc2cc(F)ccc2N(Cc2cc(F)c(F)c(F)c2)C1=O (stereo not drawn)
inhibition (Arabidopsis thaliana; stem length, petri dish germination; Col-0, 1/2 MS medium; 200 µg/mL, 7 days, 22 °C, dark): 63.6%

O=C(c1cccc(-c2ccc3ncnc(Nc4ccc(OCc5cccc(F)c5)c(Cl)c4)c3c2)c1)N1CCCC1
EC50 (Plasmodium falciparum; parasite growth, SYBR Green fluorescence; C235 (TM91C235), drug-resistant): 90 nM

CC(O)CN.O=C(O)C(Cl)Cl
herbicidal inhibition (Xanthium sibiricum; 15 mg/mL, 21 days, pre-emergence, greenhouse): 0%

Repeated from above:
C#CCN1C(=O)C(CC#C)(C(=O)OCC)Oc2ccccc21 (stereo not drawn)
stem length inhibition (Arabidopsis thaliana; Col-0, seed germination, dark; 200 µg/mL, 7 days, 22 °C): 100%

CCOC(=O)C1(Cc2ccccc2C#N)Oc2cc(F)ccc2N(Cc2ccccc2C#N)C1=O (stereo not drawn)
inhibition (Arabidopsis thaliana; root length, petri dish germination; Col-0, 1/2 MS medium; 200 µg/mL, 7 days, 22 °C, dark): 55.3%

CC(O)CN(CC(C)O)CC(C)O.O=C(O)C(Cl)Cl (stereo not drawn)
herbicidal inhibition (Xanthium sibiricum; 15 mg/mL, 21 days, post-emergence, greenhouse): -56%

CC[C@H](C)[C@H](NC(=O)[C@H](CCCCN)NC(=O)[C@H](CCCNC(=N)N)NC(=O)CNC(=O)[C@@H](NC(=O)CN)C(C)C)C(=O)NCC(=O)N[C@@H](Cc1ccccc1)C(=O)N[C@@H](CCCCN)C(=O)N[C@@H](CCCCN)C(=O)N[C@H](C(=O)N[C@@H](CC(C)C)C(=O)N[C@@H](Cc1ccccc1)C(=O)N[C@@H](Cc1ccccc1)C(=O)N[C@@H](Cc1ccccc1)C(=O)N[C@@H](CCCCN)C(=O)N[C@@H](CCCCN)C(=O)NCC(=O)N[C@@H](Cc1ccc(O)cc1)C(=O)N[C@@H](CCC(=O)O)C(=O)N[C@@H](CCCCN)C(=O)N[C@@H](C)C(=O)N[C@@H](CC(N)=O)C(=O)NCC(=O)NCC(=O)N[C@@H](Cc1ccccc1)C(=O)N[C@H](C(=O)N[C@@H](CCCCN)C(=O)N[C@@H](CCCCN)C(=O)N[C@@H](CCCCN)C(=O)NCC(=O)O)C(C)C)C(C)C
MBC (Bacillus subtilis; broth microdilution, agar subculture; ATCC 11774, CaMHB): 64 µM (≈ 222 µg/mL)

CCOC(=O)C1(Cc2ccccc2)Oc2cc(C)ccc2N(Cc2ccccc2)C1=O (stereo not drawn)
inhibition (Arabidopsis thaliana; stem length, petri dish germination; Col-0, 1/2 MS medium; 50 µg/mL, 7 days, 22 °C, dark): 41.1%

CN(C(=O)c1ccn2ncc(-c3ccc(C(N)=O)cc3)c2c1)c1ccc(C#N)cn1
faecal Nluc luminescence (Cryptosporidium parvum; UGA1 Nluc, IFN-gamma knockout C57BL/6 mice, faeces; oral, 10 mg/kg daily, 264 h post infection, treatment days 11-17; higher means more parasites): 2530 a.u. and 77500 a.u. and 126000 a.u. and 94800 a.u. and 27400 a.u.
